Results collected from several papers.
Each line is one published result; not all experiments were run side by side. Several values in a cell are separate wells, animals, samples, runs or records. ± marks the error that the study gave.
rep main protease: Replicase polyprotein 1ab, main protease (rep, Severe acute respiratory syndrome coronavirus 2, UniProt P0DTD1)
Spike glycoprotein: Spike glycoprotein (Severe acute respiratory syndrome coronavirus 2, UniProt P0DTC2)

Cc1cncc(CC(=O)N2CCC[C@@H]([C@@H]3CCN(C(=O)c4cnn(-c5ccccn5)c4)C3)C2)c1
inhibition (rep main protease; enzyme activity, inhibitor; 5 µM, mean of runs): 21.1%

CCc1c(C(=O)C(N)=O)c2c(OCC(=O)O)cccc2n1Cc1ccccc1
remaining activity (Daboia russelii venom phospholipase A2; enzyme activity, inhibitor; KL population; 0.01 µM, with: NOB substrate; baseline: venom alone): 86.3% and 82.1% and 82.3%

Cc1cncc(C(=O)NC[C@H]2c3ccccc3CCN2C(=O)c2cccn3nnnc23)c1
inhibition (rep main protease; enzyme activity, inhibitor; 5 µM, run 2): 25.7%

Cn1cnc(Cn2c(=O)[nH]/c(=N\c3cc4cn(C)nc4cc3Cl)n(Cc3cc(F)c(F)cc3F)c2=O)n1
unbound fraction (human, severe renal impairment, plasma; oral, 375 mg single dose, 24 h): 0.0165

OCC1(O)COc2cc(O)ccc2-c2cc(O)c(O)cc2C1 (stereo not drawn)
koff (Spike glycoprotein; binding, biolayer interferometry): 0.0057 s⁻¹

Nc1cccc(C(=O)NC[C@H](NC(=O)c2cnc3n[nH]nc3c2)c2ccc3ccccc3c2)c1
inhibition (rep main protease; enzyme activity, inhibitor; 5 µM, mean of runs): 10.6%

CC(C)=CCC[C@](C)(O[C@@H]1O[C@H](CO)[C@@H](O)[C@H](O)[C@H]1O)[C@H]1CC[C@]2(C)[C@@H]1[C@H](O)C[C@@H]1[C@@]3(C)CC[C@H](O[C@@H]4O[C@H](CO)[C@@H](O)[C@H](O)[C@H]4O)C(C)(C)[C@@H]3CC[C@]12C
kon (Spike glycoprotein; binding, BLI): 18600 M⁻¹ s⁻¹

CC(C)(C)c1ccc(C(O)CCCN2CCC(C(O)(c3ccccc3)c3ccccc3)CC2)cc1 (stereo not drawn)
inhibition (rep main protease; reporter gene (mKate2), inhibitor; 20 µM): -1.59%

CC(=O)O[C@@H]1[C@H](N)[C@@H](OP(=O)(O)O)[C@@]2(C(=O)O)CS[C@@](O)(C(N)=O)[C@@H]1O2
Kd (DNA-directed RNA polymerase subunit beta' / DNA-directed RNA polymerase subunit beta (rpoC/rpoB, Escherichia coli, UniProt P0A8T7+P0A8V2); binding to elongation complex, 6-MI fluorescence titration; wild-type RNAP; 2′-deoxy RNA 3′-end Uracil): 2800 ± 600 nM

CC[C@H](C)[C@H](NC(=O)[C@@H]1CCCN1C(=O)[C@H](C)NC(=O)[C@@H]1CSSC[C@@H]2NC(=O)[C@H](CC(=O)O)NC(=O)[C@H](CCCNC(=N)N)NC(=O)[C@H](CCC(=O)O)NC(=O)[C@H](CCCNC(=N)N)NC(=O)CNC(=O)[C@H](CC(=O)O)NC(=O)[C@@H]3CSSC[C@H](NC(=O)[C@H](CCC(=O)O)NC(=O)[C@H](CC(C)C)NC(=O)CNC(=O)[C@H](C)NC(=O)[C@H](CSSC[C@H](NC(=O)[C@H](Cc4ccccc4)NC(=O)[C@@H](N)CO)C(=O)N[C@@H](CC(C)C)C(=O)N[C@@H](C(C)C)C(=O)N[C@@H](CCCCN)C(=O)N[C@@H](Cc4c[nH]c5ccccc45)C(=O)N[C@@H](CCCCN)C(=O)N[C@@H](CCC(N)=O)C(=O)N3)NC2=O)C(=O)N[C@@H](Cc2c[nH]c3ccccc23)C(=O)N[C@@H](CCCCN)C(=O)N[C@@H](CCCNC(=N)N)C(=O)N[C@@H](CCCNC(=N)N)C(=O)NCC(=O)N[C@@H](CC(N)=O)C(=O)N[C@@H](CCCCN)C(=O)N[C@@H](CO)C(=O)N[C@@H](CO)C(=O)N[C@@H](C(C)C)C(=O)N1)C(=O)N[C@H](C(=O)O)[C@@H](C)O
slow deactivation tau (Acid-sensing ion channel 1 (ASIC1, Homo sapiens, UniProt P78348); outside-out patch clamp; HEK-293T ASIC1a knockout; 100 nM): 1830 ± 430 ms

NC(=O)c1ccc(/C=C/C(=O)N2CCC[C@@]3(CCN(C(=O)[C@@H]4CC(=O)NC(=O)N4)C3)C2)cc1
inhibition (rep main protease; enzyme activity; 5 µM, mean of runs): 14.9%

NC(=O)c1ncn([C@@H]2O[C@H](CO)[C@@H](O)[C@H]2O)c1O
inhibition (rep main protease; reporter gene (Gaussia luciferase), inhibitor; HEK293T; 20 µM): 2.27%

Nc1ncnc2c1ncn2[C@H]1C[C@H](O)[C@@H](COP(=O)(O)OP(=O)(O)OP(=O)(O)O)O1
kcat (Gag-Pol polyprotein, reverse transcriptase (gag-pol, Human immunodeficiency virus type 1 group M subtype B, UniProt P04585, K653T); substrate; K66T mutant, with: matched T:A primer template): 0.242 ± 0.0107 s⁻¹

CSCC[C@H](NC(=O)[C@H](CCCNC(=N)N)NC(=O)[C@H](Cc1ccccc1)NC(=O)[C@H](CS)NC(=O)[C@H](C)NC(=O)[C@@H](NC(=O)[C@@H](NC(=O)[C@H](C)NC(=O)[C@H](CCCNC(=N)N)NC(=O)[C@H](CCCNC(=N)N)NC(=O)[C@H](CCCNC(=N)N)NC(=O)[C@H](CCC(N)=O)NC(=O)[C@H](CCCCN)NC(=O)[C@H](CO)NC(=O)[C@H](CC(C)C)NC(=O)[C@H](CC(C)C)NC(=O)[C@H](CCCCN)NC(=O)[C@H](Cc1c[nH]cn1)NC(=O)[C@H](Cc1c[nH]c2ccccc12)NC(=O)[C@@H](NC(=O)[C@H](C)NC(=O)[C@H](CCCCN)NC(=O)[C@H](CCCCN)NC(=O)[C@H](CO)NC(=O)[C@H](CCCCN)NC(C)=O)C(C)C)C(C)C)C(C)C)C(=O)N[C@H](C(=O)N1CCC[C@H]1C(=O)N[C@@H](CC(C)C)C(=O)N[C@@H](Cc1ccc(O)cc1)C(=O)N[C@@H](CC(N)=O)C(N)=O)[C@@H](C)O
apparent ΔG2 (calmodulin 76-148 sites III and IV; calcium binding, Tyr fluorescence titration; 12 µM, pH 7.4, 22 °C, with: 6 µM calmodulin): -18.26 ± 0.13 kcal/mol

Cc1nc(N)c2ncn(C3CCN(Cc4ccc(S(=O)(=O)F)cc4)CC3)c2n1
kinact (Calmodulin-sensitive adenylate cyclase (cya, Bacillus anthracis, UniProt P40136)): 0.000467 s⁻¹

C=C[C@@](C)(/C=C/c1ccc(O)cc1)CCC=C(C)C
koff (Spike glycoprotein; binding): 0.0484 s⁻¹

CCN(CC)c1nc(C)cc(OP(=S)(OC)OC)n1
remaining activity (uncharacterized protein (Anopheles coluzzii, UniProt A0A6E8VQK1); enzyme activity, inhibitor; Sf9 cell homogenate; 45.87 µM, 0.1667 h, with: α-naphthyl acetate substrate; baseline: no inhibitor): 99.3%

CC(C)=CCc1c(O)cc(O)c2c(=O)c(-c3ccc(O)cc3)coc12
inhibition (rep main protease; reporter gene (Gaussia luciferase), inhibitor; 20 µM): 1.01%

CC[C@H](C)[C@H](NC(=O)[C@H](CC(C)C)NC(=O)[C@H](Cc1c[nH]c2ccccc12)NC(=O)[C@H](CCC(N)=O)NC(=O)[C@@H](NC(=O)[C@H](Cc1ccccc1)NC(=O)[C@H](C)NC(=O)[C@H](CCCCNC(=O)COCCOCCNC(=O)COCCOCCNC(=O)CC[C@H](NC(=O)CCCCCCCCCCCCCCCCCCC(=O)O)C(=O)O)NC(=O)[C@H](CCC(N)=O)NC(=O)[C@H](C)NC(=O)[C@@H](NC(=O)[C@H](CCCCN)NC(=O)[C@H](CC(=O)O)NC(=O)[C@H](CC(C)C)NC(=O)C(C)(C)NC(=O)[C@@H](NC(=O)[C@H](CO)NC(=O)[C@H](Cc1ccc(O)cc1)NC(=O)[C@H](CC(=O)O)NC(=O)[C@H](CO)NC(=O)[C@@H](NC(=O)[C@H](Cc1ccccc1)NC(=O)[C@@H](NC(=O)CNC(=O)[C@H](CCC(=O)O)NC(=O)C(C)(C)NC(=O)[C@@H](N)Cc1ccc(O)cc1)[C@@H](C)O)[C@@H](C)O)[C@@H](C)CC)[C@@H](C)CC)C(C)C)C(=O)N[C@@H](C)C(=O)NCC(=O)NCC(=O)N1CCC[C@H]1C(=O)N[C@@H](CO)C(=O)N[C@@H](CO)C(=O)NCC(=O)N[C@@H](C)C(=O)N1CCC[C@H]1C(=O)N1CCC[C@H]1C(=O)N1CCC[C@H]1C(=O)N[C@@H](CO)C(N)=O
treatment-induced ADA positive subjects (healthy subjects, single ascending dose; 2.5 mg, titre ≥1:20): 0%

bivalirudin
inhibition (rep main protease; enzyme activity, mKate2 fluorescence reporter; SARS-CoV-2; 20 µM): -0.221%

Nc1ncnc2c([C@@H]3N[C@H](CO)[C@@H](O)[C@H]3O)c[nH]c12
viral RNA copies (Marburg virus; HeLa, Musoke; 6.3 µM, 1 h): 8.86e+06 copies/mL
